# Values quoted from earlier work as cited in several papers.
# Lines come from different studies, so protocols differ. Numbers after ± are the reported error.
SMILES,tested on,test,test system,conditions,endpoint,value
CNC(C)C1CCC(N)C(OC2C(N)CC(N)C(OC3OCC(C)(O)C(NC)C3O)C2O)O1 (stereo not drawn),Klebsiella pneumoniae,,clinical isolate RKI-No_107/15,,MIC,≤ 0.5 mg/L
COc1ccccc1Oc1cccc(CN2CCC(O)(c3ccccc3C(=O)O)CC2)c1,human CCR8 F123A mutant (TM3),"IP accumulation, agonist",,,EC50,21 nM
Nc1cccc2c1C(=O)N(C1CCC(=O)NC1=O)C2=O (stereo not drawn),,,relapsed refractory multiple myeloma patients,"dose not given, trial",minimal response or better rate,29%
C[C@H]1COCCN1c1nc(-c2cnc(N)cc2C(F)F)nc(N2CCOCC2)n1,MOLT-4,,,,GI50,212 nM
O=C(Nc1cccc(-c2cccc(-c3nc4ccccc4[nH]3)c2)c1)NC1CC1c1ccccc1 (stereo not drawn),Plasmodium falciparum,whole cell extended time,3D7,72 h,IC50,1070 nM
Nc1cc(C(F)(F)F)c(-c2nc(N3CCOCC3)nc(N3CCOCC3)n2)cn1,MG-63,,,,GI50,535 nM
C=Cc1cc(NC(=O)N2CCc3cc(OC)c(C(F)(F)F)cc32)cc(-c2cccnc2)c1,Plasmodium falciparum,whole cell extended time,3D7,72 h,IC50,700 nM
Cc1c(C#N)cccc1[C@@H](C)Nc1nnc(C)c2cnc(N3CCOCC3)cc12,SNU-C4,3D cell viability,,7 d,IC50,38.4 ± 10.7 nM
CCNS(=O)(=O)c1ccc(OC)cc1C1(O)CCN(Cc2cccc(Oc3ccccc3OC)c2)CC1,human CCR8 G206A mutant (TM5),"IP accumulation, agonist",,,EC50,no effect
CC1(C)S[C@@H]2[C@H](NC(=O)[C@H](N)c3ccccc3)C(=O)N2[C@H]1C(=O)O,Enterobacter cloacae,,clinical isolate RKI-No_766/15,,MIC,> 16 mg/L
CN(C)c1ccc(C=CC(=O)NC(=O)c2ccccc2O)cc1,Plasmodium falciparum,whole cell extended time,3D7,72 h,IC50,230 nM
COc1ccccc1Oc1cccc(CN2CCC(NC(=O)C(CCN3CCCC3)c3ccccc3)CC2)c1 (stereo not drawn),human CCR8 K193A mutant (TM5),"IP accumulation, agonist",,,EC50,6 nM
Cc1[nH]c(C)c(-c2ccc(OCCCc3ccccn3)cc2)c(=O)c1Br,Plasmodium falciparum,whole cell extended time,3D7,72 h,IC50,210 nM
COc1ccccc1Oc1cccc(CN2CCC(NC(=O)C3CC(=O)Nc4ccccc43)CC2)c1 (stereo not drawn),human CCR8 S110H mutant (TM3),"IP accumulation, agonist",,,EC50,> 10000 nM
Cc1[nH]c(C)c(C2CCC(c3ccc(Cl)cc3)CC2)c(=O)c1Cl (stereo not drawn),Plasmodium falciparum,whole cell extended time,3D7,72 h,IC50,50 nM
CCN(c1cc(-c2ccc(CN3CCOCC3)cc2)cc(C(=O)NCc2c(C)cc(C)[nH]c2=O)c1C)C1CCOCC1,,,treatment-naive epithelioid sarcoma patients,dose not given,overall response rate,16%
Cc1[nH]c(C)c(-c2ccc(OCc3cc(C(F)(F)F)cc(C(F)(F)F)c3)nc2)c(=O)c1Cl,Plasmodium falciparum,whole cell extended time,3D7,72 h,IC50,110 nM
COc1ccccc1Oc1cccc(CN2CCC3(CC2)C(=O)NCN3CCc2ccccc2)c1,human CCR8 K193A mutant (TM5),"IP accumulation, agonist",,,EC50,8.5 nM

# A few entries again:
SMILES,tested on,test,test system,conditions,endpoint,value
CN(C)c1ccc(C=CC(=O)NC(=O)c2ccccc2O)cc1,Plasmodium falciparum,whole cell extended time,3D7,72 h,IC50,230 nM
COc1ccccc1Oc1cccc(CN2CCC(NC(=O)C(CCN3CCCC3)c3ccccc3)CC2)c1 (stereo not drawn),human CCR8 K193A mutant (TM5),"IP accumulation, agonist",,,EC50,6 nM
Cc1[nH]c(C)c(-c2ccc(OCCCc3ccccn3)cc2)c(=O)c1Br,Plasmodium falciparum,whole cell extended time,3D7,72 h,IC50,210 nM
